{"data": "Values quoted from earlier work that unrelated publications cite", "note": "Each line is one published result; not all experiments were run side by side. ± gives the spread as reported."}
{"SMILES": "O=C(Nc1ccc(OC2CCN(Cc3ccc(F)cc3)C2)c(Cl)c1)c1cccs1 (stereo not shown)", "tested on": "Plasmodium falciparum", "assay": "whole cell extended time", "test system": "3D7", "conditions": "72 h", "quantity": "IC50", "value": "130 nM"}
{"SMILES": "COc1ccccc1Oc1cccc(CN2CCC(O)(c3ccccc3C(=O)O)CC2)c1", "tested on": "human CCR8 S110H mutant (TM3)", "assay": "IP accumulation, agonist", "quantity": "EC50", "value": "> 10000 nM"}
{"SMILES": "CC(C)(C)c1ccc(O)c(CN(Cc2cc(C(C)(C)C)ccc2O)C2CCC(NC(N)=O)CC2)c1 (stereo not shown)", "tested on": "HMC3", "conditions": "concentration not given, together with: thrombin", "quantity": "TNF-α level", "value": "decreased"}
{"SMILES": "CC(=O)c1c(C)c2cnc(Nc3ccc(N4CCNCC4)cn3)nc2n(C2CCCC2)c1=O", "tested on": "human neutrophils", "conditions": "concentration not given, together with: fMLF", "quantity": "MAPK phosphorylation", "value": "no effect"}
{"SMILES": "N#Cc1ccc(N2CCN(Cc3ccc(-c4ccc(-c5nc6cc(C(F)(F)F)ccc6[nH]5)cc4)cc3)CC2)nc1", "tested on": "Plasmodium falciparum", "assay": "whole cell extended time", "test system": "3D7", "conditions": "72 h", "quantity": "IC50", "value": "960 nM"}
{"SMILES": "Nc1cccc2c1C(=O)N(C1CCC(=O)NC1=O)C2=O (stereo not shown)", "test system": "relapsed refractory multiple myeloma patients", "conditions": "dose not given, bortezomib and lenalidomide refractory", "quantity": "minimal response or better rate", "value": "30%"}
{"SMILES": "C[C@H]1COCCN1c1nc(-c2cnc(N)cc2C(F)F)nc(N2CCOCC2)n1", "tested on": "A704", "quantity": "GI50", "value": "361 nM"}
{"SMILES": "CCNS(=O)(=O)c1ccc(OC)cc1C1(O)CCN(Cc2cccc(Oc3ccccc3OC)c2)CC1", "tested on": "human CCR8 K193A mutant (TM5)", "assay": "IP accumulation, agonist", "quantity": "EC50", "value": "4 nM"}
{"SMILES": "CCN(c1cc(-c2ccc(CN3CCOCC3)cc2)cc(C(=O)NCc2c(C)cc(C)[nH]c2=O)c1C)C1CCOCC1", "test system": "treated epithelioid sarcoma patients", "conditions": "dose not given", "quantity": "overall response rate", "value": "11%"}
{"SMILES": "COc1ccc2c(=O)c(C3CCC(c4ccc(Cl)cc4)CC3)c(C)[nH]c2c1 (stereo not shown)", "tested on": "Plasmodium falciparum", "assay": "whole cell extended time", "test system": "3D7", "conditions": "72 h", "quantity": "IC50", "value": "650 nM"}
{"SMILES": "COC(=O)C1=C(C)NC(C)=C(C(=O)OC)C1c1c(-c2cc(OC)ccc2OC)nc2sc(C)cn12", "test system": "guinea pig left atrium", "conditions": "50 µM, paced at 1 Hz", "scale": "reference: control", "quantity": "decrease in developed tension", "value": "78 ± 0.9%"}
{"SMILES": "CC1(C)S[C@@H]2[C@H](NC(=O)[C@H](N)c3ccccc3)C(=O)N2[C@H]1C(=O)O", "tested on": "Escherichia coli", "test system": "clinical isolate RKI-No_513/16", "quantity": "MIC", "value": "> 16 µg/mL"}
{"SMILES": "Cc1nc(C)c(-c2ccc(C(=O)c3ccccc3)cc2)c(O)c1Br", "tested on": "Plasmodium falciparum", "assay": "whole cell extended time", "test system": "3D7", "conditions": "72 h", "quantity": "IC50", "value": "780 nM"}
{"SMILES": "COc1ccccc1Oc1cccc(CN2CCC(NC(=O)C(CCN3CCCC3)c3ccccc3)CC2)c1 (stereo not shown)", "tested on": "human CCR8 K193A mutant (TM5)", "assay": "IP accumulation, agonist", "quantity": "EC50", "value": "6 nM"}
{"SMILES": "Cc1[nH]c(C)c(C(F)(F)F)c(=O)c1-c1ccc(Oc2ccc(OC(F)(F)F)cc2)cc1", "tested on": "Plasmodium falciparum", "assay": "whole cell extended time", "test system": "3D7", "conditions": "72 h", "quantity": "IC50", "value": "170 nM"}
{"SMILES": "COc1ccccc1Oc1cccc(CN2CCC3(CC2)C(=O)NCN3CCc2ccccc2)c1", "tested on": "human CCR8 L168D mutant (TM4)", "assay": "IP accumulation, agonist", "quantity": "EC50", "value": "18 nM"}
{"SMILES": "COC(=O)C1=C(C)NC(C)=C(C(=O)OC)C1c1c(-c2cccc(OC(F)(F)F)c2)nc2sccn12", "test system": "guinea pig left atrium", "conditions": "50 µM, paced at 1 Hz", "scale": "reference: control", "quantity": "decrease in developed tension", "value": "86 ± 0.7%"}
{"SMILES": "O=C(Nc1nc2ccccc2[nH]1)c1ccccc1", "tested on": "SUMO/sentrin specific protease 8", "conditions": "10 µM, PubChem AID 2540", "quantity": "response", "value": "90%"}
{"SMILES": "Clc1ccc2c(NN=Cc3cccs3)ccnc2c1", "tested on": "Plasmodium falciparum", "assay": "whole cell extended time", "test system": "3D7", "conditions": "72 h", "quantity": "IC50", "value": "920 nM"}
{"SMILES": "Nc1cc(C(F)(F)F)c(-c2nc(N3CCOCC3)nc(N3CCOCC3)n2)cn1", "tested on": "Jurkat E6-1", "quantity": "GI50", "value": "720 nM"}
{"SMILES": "COC(=O)C1=C(C)NC(C)=C(C(=O)OC)C1c1c(-c2ccc(OC)c(OC)c2)nc2sccn12", "assay": "decrease in atrial rate", "test system": "guinea pig right atrium", "quantity": "EC50", "value": "3010 nM"}
{"SMILES": "CNC(C)C1CCC(N)C(OC2C(N)CC(N)C(OC3OCC(C)(O)C(NC)C3O)C2O)O1 (stereo not shown)", "tested on": "Pseudomonas aeruginosa", "test system": "clinical isolate RKI-No_21/12", "quantity": "MIC", "value": "> 8 µg/mL"}
{"SMILES": "O=C1NC(=O)c2c1c1c3ccccc3[nH]c1n1cncc21", "tested on": "CSNK1G1", "assay": "kinase activity, inhibitor", "conditions": "0.5 µM", "quantity": "inhibition", "value": "32%"}
{"SMILES": "COC(=O)C1=C(C)NC(C)=C(C(=O)OC)C1c1c(-c2cccc(OC)c2)nc2sccn12", "assay": "calcium-induced contraction, relaxant", "test system": "guinea pig ileum longitudinal muscle", "quantity": "IC50", "value": "83 nM"}
{"SMILES": "Cc1[nH]c(C)c(-c2ccc(OCc3ccc(F)cc3)cc2)c(=O)c1Cl", "tested on": "Plasmodium falciparum", "assay": "whole cell extended time", "test system": "3D7", "conditions": "72 h", "quantity": "IC50", "value": "570 nM"}
{"SMILES": "COc1ccccc1Oc1cccc(CN2CCC(NC(=O)C3CC(=O)Nc4ccccc43)CC2)c1 (stereo not shown)", "tested on": "human CCR8 G206W mutant (TM5)", "assay": "IP accumulation, agonist", "quantity": "EC50", "value": "29 nM"}
{"SMILES": "Cc1cc(=O)c(-c2ccc(OCc3ccc(OC(F)(F)F)cc3)cc2)c(C)[nH]1", "tested on": "Plasmodium falciparum", "assay": "whole cell extended time", "test system": "3D7", "conditions": "72 h", "quantity": "IC50", "value": "740 nM"}
{"SMILES": "Cc1c(C#N)cccc1[C@@H](C)Nc1nnc(C)c2cnc(N3CCOCC3)cc12", "tested on": "MKN-1", "assay": "3D cell viability", "conditions": "7 d", "quantity": "IC50", "value": "> 1000 nM"}
{"note": "Repeated from above:"}
{"SMILES": "COc1ccc2c(=O)c(C3CCC(c4ccc(Cl)cc4)CC3)c(C)[nH]c2c1 (stereo not shown)", "tested on": "Plasmodium falciparum", "assay": "whole cell extended time", "test system": "3D7", "conditions": "72 h", "quantity": "IC50", "value": "650 nM"}
{"SMILES": "CCNS(=O)(=O)c1ccc(OC)cc1C1(O)CCN(Cc2cccc(Oc3ccccc3OC)c2)CC1", "tested on": "human CCR8 K193A mutant (TM5)", "assay": "IP accumulation, agonist", "quantity": "EC50", "value": "4 nM"}
{"SMILES": "COc1ccccc1Oc1cccc(CN2CCC(O)(c3ccccc3C(=O)O)CC2)c1", "tested on": "human CCR8 S110H mutant (TM3)", "assay": "IP accumulation, agonist", "quantity": "EC50", "value": "> 10000 nM"}
{"SMILES": "Cc1cc(=O)c(-c2ccc(OCc3ccc(OC(F)(F)F)cc3)cc2)c(C)[nH]1", "tested on": "Plasmodium falciparum", "assay": "whole cell extended time", "test system": "3D7", "conditions": "72 h", "quantity": "IC50", "value": "740 nM"}
